# Experimental data from different studies.
# Every numbered part comes from another study and shows a few of its results, in no order.

# Sample 1
# Target: Centromere-binding protein 1, full length, N-terminal tag (CBF1, Saccharomyces cerevisiae, UniProt P17106, residues 1-351)
# Sequence of UniProt P17106 (whole entry, looked up): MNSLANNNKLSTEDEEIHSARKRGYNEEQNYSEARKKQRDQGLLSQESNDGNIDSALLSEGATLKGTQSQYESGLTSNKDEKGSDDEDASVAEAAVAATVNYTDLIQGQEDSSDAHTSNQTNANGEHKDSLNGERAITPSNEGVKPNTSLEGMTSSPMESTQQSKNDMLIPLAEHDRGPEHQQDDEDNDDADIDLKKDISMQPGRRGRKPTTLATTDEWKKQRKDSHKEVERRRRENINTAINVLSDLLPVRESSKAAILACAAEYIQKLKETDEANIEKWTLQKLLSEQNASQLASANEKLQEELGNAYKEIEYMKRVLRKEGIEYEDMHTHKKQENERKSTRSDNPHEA
# Technique: protein-binding microarray
# Molecule type: double-stranded DNA, one strand shown
# Matrix: in vitro
# Concentration: 0.8 µM
# Notes: whole 60-bp probe, no competitor
# Direction: higher = stronger binding
# Shared flanks, not repeated: … GTCTTGATTCGCTTGACGCTGCTG
Strand,fluorescence intensity
CCTAACTACTATAAATAGGTGGTATAGCTTCGTACA,534 a.u.
GAAAAAAAGAAACGTGGTGGTACTTCGCACCCATAG,792 a.u.
GAATTCCTAGGGTATCATGTGTCTGGCCCAAAATAG,811 a.u.
CTAAAGTAGTTGTGACATGTGGATGTAATAGCGTTC,787 a.u.
TGTACGAAGCTATCCAATGACCATATAGTAGTTAGG,561 a.u.
TGTACGAAGCTATCAATCGTGCCTATAGTAGTTAGG,522 a.u.
CCTAACTACTATAATCACGGATAATAGCTTCGTACA,578 a.u.

# Sample 2
# Target: Interferon regulatory factor 5, full length, phosphomimetic (IRF5, Homo sapiens, UniProt Q13568-2, residues 1-514, S451D/S453D/S456D/S462D)
# Technique: protein-binding microarray
# Molecule type: double-stranded DNA, one strand shown
# Matrix: in vitro
# Concentration: 940 nM top
# Notes: 60-bp whole probe
# Together with: salmon DNA 0.4 mg/ml
# Relative to: random background probes
# Direction: higher = stronger binding
# Shared flanks, not repeated: GCCTAGCAC … GTCTTGATTCGCTTGACGCTGCTG
Strand,fitted relative affinity
GACGATATCAGTTTGGAGACGTGCTAG,-0.175 z-score
TCATCTGTCATGTTTGTCACTGTGCTA,0.518 z-score
TTAGGATTGGACTTTCGGTTAGTGCTA,2.42 z-score
TCAATTCTCTGTTTATGACTGTGCTAG,2.13 z-score
TTAGGTTTCCTTCTCCTTTAGTGCTAG,2.21 z-score
GTTCAAAGTCCTACGGCTTCGTGCTAG,-0.579 z-score
TTAGATCACAGTATCGATTAGTGCTAG,3.73 z-score

# Single results of other studies
Molecule,tested on,test,test system,setting,how to read,endpoint,result
"PhoQ, residues 284 288 289 292 302 303 TAVSDG","PhoP, residues 12 14 15 18 19 VQGLL (Escherichia coli, UniProt P23836)","Sort-seq, item: YFP reporter",E. coli,"PhoQ-PhoP variant library, together with: 10 µM Mg2+","relative to: high Mg2+ state, higher = stronger signaling",fold induction,13.3
"AP2B1 (Homo sapiens, UniProt P63010)","AP2M1 (Homo sapiens, UniProt Q96CW1)",cross-linking MS,cells,together with: BSPNO,,cross-linked residues,K322 to K281

# Repeated from above (sample 2):
Strand,fitted relative affinity
TTAGGTTTCCTTCTCCTTTAGTGCTAG,2.21 z-score
TCATCTGTCATGTTTGTCACTGTGCTA,0.518 z-score
GACGATATCAGTTTGGAGACGTGCTAG,-0.175 z-score
